Measurements collected from several papers.
Each numbered part is a random draw from the data of one study; scales do not carry over between parts.

Sample 1 — method: protein-binding microarray; molecule type: double-stranded DNA, one strand shown; medium: in vitro; tested at: 2540 nM top; setting: 60-bp whole probe; added: salmon DNA 0.4 mg/ml; reference: random background probes; direction: higher = stronger binding
Target: Interferon regulatory factor 3, full length, phosphomimetic (IRF3, Homo sapiens, UniProt Q14653, residues 1-427, S386D/S396D/S398D/S402D/T404D/S405D)
Sequence of UniProt Q14653 (whole entry, unmodified, looked up): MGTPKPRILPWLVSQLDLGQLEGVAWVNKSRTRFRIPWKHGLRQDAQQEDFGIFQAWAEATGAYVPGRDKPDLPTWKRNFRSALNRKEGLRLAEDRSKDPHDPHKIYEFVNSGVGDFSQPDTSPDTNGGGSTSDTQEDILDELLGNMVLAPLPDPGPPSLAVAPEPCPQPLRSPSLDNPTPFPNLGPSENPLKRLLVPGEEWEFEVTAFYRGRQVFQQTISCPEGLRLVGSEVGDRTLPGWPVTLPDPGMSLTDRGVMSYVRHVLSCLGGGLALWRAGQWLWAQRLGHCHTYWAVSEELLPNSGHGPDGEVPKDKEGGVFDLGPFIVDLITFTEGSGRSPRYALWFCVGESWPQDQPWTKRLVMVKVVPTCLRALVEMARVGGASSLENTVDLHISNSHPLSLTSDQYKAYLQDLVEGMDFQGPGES
Oligonucleotide	fitted relative affinity [z-score]
GCCTAGCACGACCGTTTCGGTATCGGGACGTGCTAGGTCTTGATTCGCTTGACGCTGCTG	7.23
GCCTAGCACTCAGTTTCCATTTTCAGACTGTGCTAGGTCTTGATTCGCTTGACGCTGCTG	10.4
GCCTAGCACTTGGATCTCAGTCTCGATTAGTGCTAGGTCTTGATTCGCTTGACGCTGCTG	0.173

Sample 2 — method: universal PBM; molecule type: double-stranded DNA, one strand shown; medium: in vitro; tested at: 600 nM; direction: higher = stronger binding
Target: Sal-like protein 4, full length isoform A (SALL4, Homo sapiens, UniProt Q9UJQ4, residues 1-1053)
Sequence of UniProt Q9UJQ4 (whole entry, looked up): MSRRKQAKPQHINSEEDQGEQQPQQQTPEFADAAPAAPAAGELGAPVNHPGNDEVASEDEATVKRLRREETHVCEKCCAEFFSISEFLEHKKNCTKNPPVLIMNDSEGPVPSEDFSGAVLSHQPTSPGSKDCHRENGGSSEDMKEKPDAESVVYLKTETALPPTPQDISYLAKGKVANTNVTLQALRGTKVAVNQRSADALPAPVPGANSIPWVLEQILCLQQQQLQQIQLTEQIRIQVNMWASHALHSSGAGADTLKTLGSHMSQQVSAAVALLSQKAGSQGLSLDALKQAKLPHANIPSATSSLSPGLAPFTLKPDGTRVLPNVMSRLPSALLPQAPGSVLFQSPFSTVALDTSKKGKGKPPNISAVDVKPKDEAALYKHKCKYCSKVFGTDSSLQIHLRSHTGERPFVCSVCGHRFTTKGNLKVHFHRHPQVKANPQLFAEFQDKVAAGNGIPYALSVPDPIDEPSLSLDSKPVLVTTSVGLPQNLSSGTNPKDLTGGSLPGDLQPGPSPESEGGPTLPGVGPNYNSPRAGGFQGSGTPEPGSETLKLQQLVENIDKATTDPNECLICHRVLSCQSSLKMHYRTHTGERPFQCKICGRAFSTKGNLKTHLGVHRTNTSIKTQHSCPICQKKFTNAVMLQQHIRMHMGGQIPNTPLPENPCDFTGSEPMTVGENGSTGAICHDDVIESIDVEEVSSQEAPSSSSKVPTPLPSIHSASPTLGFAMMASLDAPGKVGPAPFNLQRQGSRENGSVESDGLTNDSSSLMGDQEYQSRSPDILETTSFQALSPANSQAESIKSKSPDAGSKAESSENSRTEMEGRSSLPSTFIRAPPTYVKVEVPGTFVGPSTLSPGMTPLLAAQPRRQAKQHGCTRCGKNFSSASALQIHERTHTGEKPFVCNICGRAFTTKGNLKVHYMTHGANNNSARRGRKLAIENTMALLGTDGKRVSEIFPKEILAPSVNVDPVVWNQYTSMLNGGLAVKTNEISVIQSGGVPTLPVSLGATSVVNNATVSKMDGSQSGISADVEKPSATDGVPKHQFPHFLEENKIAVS
Setting: 8-mer, flanks averaged, mean of replicates
Oligonucleotide	E-score
CACCGGTA	-0.204
CAGGTGGA	-0.172
CGCCGCCA	-0.373
CAATAAAG	0.31
TACCACCA	-0.016
CGGGCAAC	-0.362

Sample 3 — method: RNA Bind-n-Seq; molecule type: RNA; medium: in vitro; tested at: 365 nM; reference: no-protein control; direction: higher = stronger binding
Target: RNA binding protein fox-1 homolog 2, RRM domain, GST-SBP tag (RBFOX2, Homo sapiens, UniProt O43251-10, residues 100-194)
Setting: natural RNA segment, single round, ends assumed
Target sequence (chain): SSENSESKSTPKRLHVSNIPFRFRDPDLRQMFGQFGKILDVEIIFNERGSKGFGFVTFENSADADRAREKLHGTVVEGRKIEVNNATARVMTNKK
Oligonucleotide	RBNS enrichment (R)
GGGAGUUCUACAGUCCGACGAUCGUUUGGCUAACCUUAUUUUGUGCUGUUAAUCUACCAAAGUGUUUUGUCUACCCCUUUAAUAAGUUGAGUUAAAAGUAAAAGGAACUUUAUAGUUAGUGCCACAAGAUAAAUGGAAUUCUCGGGUGCCAA	0.363
GGGAGUUCUACAGUCCGACGAUCUCCUUUUGCAGGAGUGGCUGUACCUGCAGAAAGCCCAGGGGUCCACAGUACAGUGCAGGAGAAGCAGCUGAGUUGGCCUGGUCUAAGGAUACCCCCUAGCAAACUUGGCCUGGAAUUCUCGGGUGCCAA	0.319
GGGAGUUCUACAGUCCGACGAUCCAUAACCUGAAGUUAAGUCACAUCCCCUGUCGGGACCUCCGUGCACUCAUCUGUCAAGUGGGGGCGCUUCCCUUCCAGCAUCACCUGCAGCAGACGGGCUCUCGGGAGUCUGGAAUUCUCGGGUGCCAA	0.468
GGGAGUUCUACAGUCCGACGAUCUGUGGGCCAGUGUCGUGUGGCCUGGAGACCAUCAGGAGUCUGCACACCCACCACUUACUUGUGCCAGAAACUCUGGAGGCACCCACACCUCCCACCUGUUCAGGUUGUGGUGGAAUUCUCGGGUGCCAA	0.316

Other studies, line by line
Molecule	target	test	system	setting	how to read	measurement	value
PhoQ, residues 284 288 289 292 302 303 AGGLSV	PhoP, residues 12 14 15 18 19 TQALL (Escherichia coli, UniProt P23836)	Sort-seq, measured: YFP reporter	E. coli	PhoQ-PhoP variant library, added: 10 µM Mg2+	reference: high Mg2+ state, higher = stronger signaling	fold induction	0.0552
